Assay results from different studies.

For O=C(CN1C(=O)CSC1=O)Oc1ccc(/C=N/NC(=O)c2ccncc2)cc1, the MIC was 10 µM (Mycobacterium tuberculosis; Alamar blue; MDR 210).
With N#Cc1ccc(Oc2ccc(Cl)cc2Cl)c(O)c1 the MIC was 12.5 µg/mL (Mycobacterium tuberculosis; mc2 5855).
The MIC of CN[C@@H]1[C@H](O)[C@H](NC)[C@H]2O[C@]3(O)[C@H](O[C@@H]2[C@H]1O)O[C@H](C)C[C@H]3NC(=O)Cc1cc(Cl)ccn1 is reported as 1 µg/mL (Mycobacterium tuberculosis; MDR clinical isolates).
COc1c(N2CC3CCCNC3C2)c(F)cc2c(=O)c(C(=O)OCc3cnc([N+](=O)[O-])s3)cn(C3CC3)c12 (stereo not shown) has an MIC of 0.125 µM (Mycobacterium tuberculosis; MDR).
With CCCCCCNCc1ccc(Oc2ccc(Cl)cc2O)c(Cl)c1 the MIC was 5 µg/mL (Mycobacterium tuberculosis; mc2 5855).
With O=C(CN1C(=O)CSC1=O)Oc1ccc(/C=N/NC(=O)c2cccnc2)cc1Br the MIC was 268 µM (Mycobacterium tuberculosis; Alamar blue; MDR 210).
For COc1ccc2ncc(F)c(CC[C@@]3(O)CO[C@@H]4[C@@H](NCc5ccc(Cl)c(Cl)c5)CO[C@@H]43)c2n1, the MIC was 1 µg/mL (Mycobacterium tuberculosis; H37Rv rpoB S450L mutant).
For CN[C@@H]1[C@H](O)[C@H](NC)[C@H]2O[C@]3(O)[C@H](O[C@@H]2[C@H]1O)O[C@H](C)C[C@H]3NC(=O)Cc1ccc(Cl)cn1, the MIC was 1 µg/mL (Mycobacterium tuberculosis; MDR clinical isolates).
With COc1ccc2ncc(F)c(C[C@H](O)[C@H]3OC[C@H](NCc4ccc5c(n4)NC(=O)CO5)CO3)c2c1 the MIC was 0.125 µg/mL (Mycobacterium tuberculosis; H37Rv rpoB S450L mutant).
With CCCCCCNCc1ccc(Oc2ccc(Cl)cc2Cl)c(O)c1 the MIC was 5 µg/mL (Mycobacterium tuberculosis; mc2 5855).
With COc1ccc2nccc(CC[C@H]3OC[C@H](NC(=O)c4ccc(Cl)c(Cl)c4)CO3)c2c1 the MIC was 1 µg/mL (Mycobacterium tuberculosis; H37Rv gyrA D94K mutant).
C[C@]12CC[C@H](OC(=O)C3CC3)[C@@](C)(COC(=O)C3CC3)C1C[C@H](O)[C@@]1(C)Oc3cc(-c4cccnc4)oc(=O)c3[C@H](O)C21 (stereo partly shown) gave a current density of 13.2 pA/pF (Nan-Iav channel Halyomorpha halys; ion current; HEK-293T; concentration not given).
For COc1ccc2nccc(CC[C@H]3OC[C@H](NC(=O)c4ccc(Cl)cc4)CO3)c2c1, the MIC was 4 µg/mL (Mycobacterium tuberculosis; H37Rv gyrA D94K mutant).
The MIC of COc1cc(/C=N/NC(=O)c2ccncc2)ccc1OC(=O)CN1C(=O)CSC1=O is reported as 149 µM (Mycobacterium tuberculosis; Alamar blue; MDR 210).
For COc1ccc2ncc(F)c(C(O)C[C@H]3OC[C@H](NCc4ccc5c(c4)OCCO5)CO3)c2c1 (stereo partly shown), the MIC was 16 µg/mL (Mycobacterium tuberculosis; H37Rv gyrA D94K mutant).
O=C(CN1C(=O)CSC1=O)Oc1ccc(/C=N/NC(=S)Nc2cccc(Cl)c2)cc1Cl gave an MIC of 31.6 to 45.7 µM (Mycobacterium tuberculosis; Alamar blue; MDR 210).

A few entries again:
The MIC of COc1cc(/C=N/NC(=O)c2ccncc2)ccc1OC(=O)CN1C(=O)CSC1=O is reported as 149 µM (Mycobacterium tuberculosis; Alamar blue; MDR 210).
For COc1ccc2ncc(F)c(C(O)C[C@H]3OC[C@H](NCc4ccc5c(c4)OCCO5)CO3)c2c1 (stereo partly shown), the MIC was 16 µg/mL (Mycobacterium tuberculosis; H37Rv gyrA D94K mutant).
